Published values gathered from unrelated publications.
Each numbered part is a random draw from the data of one study; scales do not carry over between parts.

Series 1
Target: Protein max, full length (MAX, Homo sapiens, UniProt P61244-2, residues 1-151)
Method: protein-binding microarray
Form: double-stranded DNA, one strand shown
Sample: in vitro
Tested at: not given
Notes: k-mer, scored over probes, only values ≥0.25
Direction: higher = stronger binding
Sequence	E-score
AGCGTGCA	0.429
ATGCACGG	0.27
CCCACGGG	0.348

Series 2
Target: Interferon regulatory factor 7, full length, phosphomimetic (IRF7, Homo sapiens, UniProt Q92985, residues 1-503, S101K/S471D/S472D/S475D/S476D/S477D/S483D/S484D/S487D)
Method: protein-binding microarray
Form: double-stranded DNA, one strand shown
Sample: in vitro
Tested at: 250 nM
Notes: 60-bp whole probe
Added: salmon DNA 0.4 mg/ml
Relative to: random background probes
Direction: higher = stronger binding
Constant ends, left off below: GCCTAGCAC … GTCTTGATTCGCTTGACGCTGCTG
Residues (chain): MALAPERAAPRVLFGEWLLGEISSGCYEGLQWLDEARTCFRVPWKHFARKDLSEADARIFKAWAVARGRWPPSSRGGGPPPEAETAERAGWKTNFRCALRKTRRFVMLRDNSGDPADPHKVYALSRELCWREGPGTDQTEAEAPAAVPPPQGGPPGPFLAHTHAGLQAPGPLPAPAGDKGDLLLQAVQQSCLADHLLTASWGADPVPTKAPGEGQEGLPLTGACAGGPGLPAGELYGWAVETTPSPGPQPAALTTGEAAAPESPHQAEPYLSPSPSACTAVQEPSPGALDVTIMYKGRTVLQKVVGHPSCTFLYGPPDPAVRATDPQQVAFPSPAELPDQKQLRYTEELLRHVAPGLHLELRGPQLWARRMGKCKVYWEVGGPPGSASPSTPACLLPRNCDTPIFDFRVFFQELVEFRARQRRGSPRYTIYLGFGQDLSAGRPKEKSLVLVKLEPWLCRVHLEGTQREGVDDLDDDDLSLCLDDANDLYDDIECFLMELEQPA
Sequence	log fluorescence [z-score]
TCATTTACAGGTTCTCTTACTGTGCTA	1.28
CCAGCTCTTTCGTTACTTCCTGTGCTA	0.286
TCAGACATCTTCATCAAACTGTGCTAG	0.0506
TTAGGATTCGGGTTTCGGTTAGTGCTA	8.96
TTATATATCAGTTTCGATTAGTGCTAG	8.79

Series 3
Target: Histone acetyltransferase KAT6A, winged helix 2, GST fusion (KAT6A, Homo sapiens, UniProt Q92794, residues 85-181)
Method: protein binding microarray
Form: double-stranded DNA, one strand shown
Sample: in vitro
Tested at: not given
Notes: 8-mer, flanks averaged, mean of 2 arrays, mostly near background
Relative to: not given
Direction: higher = stronger binding
Construct (chain): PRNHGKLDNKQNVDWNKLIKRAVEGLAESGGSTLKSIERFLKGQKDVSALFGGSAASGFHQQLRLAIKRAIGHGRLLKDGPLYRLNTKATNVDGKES
Sequence	E-score
ATCCCATG	-0.202
AGGCTTCA	-0.154
GTCGGCAC	0.0825
AATCTGTG	-0.113
AACTTTAC	-0.0271
TCGATCAA	0.0416
CCATTCGA	-0.058

Mixed results
Molecule	target	assay	system	setting	scale	quantity	result
PhoQ, residues 284 288 289 292 302 303 AQGLTV	PhoP, residues 12 14 15 18 19 NHFIF (Escherichia coli, UniProt P23836)	Sort-seq, item: YFP reporter	E. coli	PhoQ-PhoP variant library, added: 10 µM Mg2+	relative to: high Mg2+ state, higher = stronger signaling	fold induction	10.3
